# Results gathered from unrelated publications.
# Values joined by “and” are separate records of one study, mostly repeats; a detail may differ.
# IL1RL2: Interleukin-1 receptor-like 2 (IL1RL2, Homo sapiens, UniProt Q9HB29)
# UniProt Q9HB29, sequence (whole entry, looked up): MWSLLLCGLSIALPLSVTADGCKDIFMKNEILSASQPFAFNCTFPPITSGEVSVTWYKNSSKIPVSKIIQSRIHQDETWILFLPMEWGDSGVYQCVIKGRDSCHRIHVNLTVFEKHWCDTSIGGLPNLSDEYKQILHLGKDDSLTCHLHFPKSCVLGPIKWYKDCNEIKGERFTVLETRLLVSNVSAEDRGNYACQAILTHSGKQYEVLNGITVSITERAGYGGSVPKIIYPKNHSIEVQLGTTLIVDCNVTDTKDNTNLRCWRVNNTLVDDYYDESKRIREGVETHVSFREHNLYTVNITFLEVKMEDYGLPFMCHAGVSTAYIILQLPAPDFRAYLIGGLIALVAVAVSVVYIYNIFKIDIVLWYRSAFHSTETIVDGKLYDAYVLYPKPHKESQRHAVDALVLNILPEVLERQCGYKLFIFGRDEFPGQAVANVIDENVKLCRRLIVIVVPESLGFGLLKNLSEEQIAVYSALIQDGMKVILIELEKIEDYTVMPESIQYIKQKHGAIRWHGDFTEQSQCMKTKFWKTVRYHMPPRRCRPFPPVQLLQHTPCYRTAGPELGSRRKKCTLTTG
# PRMT5: Protein arginine N-methyltransferase 5 (PRMT5, Homo sapiens, UniProt O14744)
# UniProt P30771, sequence (whole entry, looked up): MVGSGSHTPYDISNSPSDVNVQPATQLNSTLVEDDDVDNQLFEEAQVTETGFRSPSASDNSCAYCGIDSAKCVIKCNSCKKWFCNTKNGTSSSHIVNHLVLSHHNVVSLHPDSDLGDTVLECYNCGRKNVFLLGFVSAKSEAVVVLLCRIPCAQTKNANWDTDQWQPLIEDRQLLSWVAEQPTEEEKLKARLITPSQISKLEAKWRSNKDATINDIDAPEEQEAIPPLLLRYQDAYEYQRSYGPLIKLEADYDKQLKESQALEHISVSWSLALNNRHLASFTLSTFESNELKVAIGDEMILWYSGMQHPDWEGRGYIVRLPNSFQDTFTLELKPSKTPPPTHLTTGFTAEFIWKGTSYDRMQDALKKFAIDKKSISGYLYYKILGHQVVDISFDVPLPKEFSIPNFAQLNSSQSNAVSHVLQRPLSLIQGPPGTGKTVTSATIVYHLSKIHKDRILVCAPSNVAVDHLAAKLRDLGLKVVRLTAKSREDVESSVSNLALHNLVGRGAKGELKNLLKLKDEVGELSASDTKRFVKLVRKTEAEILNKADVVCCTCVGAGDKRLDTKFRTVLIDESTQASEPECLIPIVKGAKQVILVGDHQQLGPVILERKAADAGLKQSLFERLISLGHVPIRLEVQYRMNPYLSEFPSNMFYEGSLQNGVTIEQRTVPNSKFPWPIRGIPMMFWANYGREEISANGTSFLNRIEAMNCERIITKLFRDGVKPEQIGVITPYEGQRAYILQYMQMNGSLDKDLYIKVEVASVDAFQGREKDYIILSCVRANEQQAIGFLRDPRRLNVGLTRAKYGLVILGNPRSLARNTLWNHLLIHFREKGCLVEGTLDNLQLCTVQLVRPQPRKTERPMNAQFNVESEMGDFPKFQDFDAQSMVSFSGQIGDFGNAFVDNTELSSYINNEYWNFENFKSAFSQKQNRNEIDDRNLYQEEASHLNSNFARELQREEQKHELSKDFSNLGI
# UniProt O14744, sequence (whole entry, looked up): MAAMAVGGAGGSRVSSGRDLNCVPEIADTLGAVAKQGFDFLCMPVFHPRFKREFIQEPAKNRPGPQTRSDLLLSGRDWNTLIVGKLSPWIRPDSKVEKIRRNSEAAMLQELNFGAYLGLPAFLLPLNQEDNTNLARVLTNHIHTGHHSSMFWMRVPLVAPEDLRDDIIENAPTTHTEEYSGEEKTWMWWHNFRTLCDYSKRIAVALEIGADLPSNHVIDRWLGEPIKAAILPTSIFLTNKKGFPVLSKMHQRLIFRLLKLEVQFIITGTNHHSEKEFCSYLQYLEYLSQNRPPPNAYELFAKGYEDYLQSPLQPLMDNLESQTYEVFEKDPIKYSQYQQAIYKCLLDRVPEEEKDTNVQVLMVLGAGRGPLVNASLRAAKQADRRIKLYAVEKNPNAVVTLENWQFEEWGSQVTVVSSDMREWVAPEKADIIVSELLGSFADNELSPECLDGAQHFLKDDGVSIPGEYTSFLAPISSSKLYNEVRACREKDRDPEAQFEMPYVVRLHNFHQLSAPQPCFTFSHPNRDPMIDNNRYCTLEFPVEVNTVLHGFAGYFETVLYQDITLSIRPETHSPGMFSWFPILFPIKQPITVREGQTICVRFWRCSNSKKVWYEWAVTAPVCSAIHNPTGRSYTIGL
# UniProt P78536, sequence (whole entry, looked up): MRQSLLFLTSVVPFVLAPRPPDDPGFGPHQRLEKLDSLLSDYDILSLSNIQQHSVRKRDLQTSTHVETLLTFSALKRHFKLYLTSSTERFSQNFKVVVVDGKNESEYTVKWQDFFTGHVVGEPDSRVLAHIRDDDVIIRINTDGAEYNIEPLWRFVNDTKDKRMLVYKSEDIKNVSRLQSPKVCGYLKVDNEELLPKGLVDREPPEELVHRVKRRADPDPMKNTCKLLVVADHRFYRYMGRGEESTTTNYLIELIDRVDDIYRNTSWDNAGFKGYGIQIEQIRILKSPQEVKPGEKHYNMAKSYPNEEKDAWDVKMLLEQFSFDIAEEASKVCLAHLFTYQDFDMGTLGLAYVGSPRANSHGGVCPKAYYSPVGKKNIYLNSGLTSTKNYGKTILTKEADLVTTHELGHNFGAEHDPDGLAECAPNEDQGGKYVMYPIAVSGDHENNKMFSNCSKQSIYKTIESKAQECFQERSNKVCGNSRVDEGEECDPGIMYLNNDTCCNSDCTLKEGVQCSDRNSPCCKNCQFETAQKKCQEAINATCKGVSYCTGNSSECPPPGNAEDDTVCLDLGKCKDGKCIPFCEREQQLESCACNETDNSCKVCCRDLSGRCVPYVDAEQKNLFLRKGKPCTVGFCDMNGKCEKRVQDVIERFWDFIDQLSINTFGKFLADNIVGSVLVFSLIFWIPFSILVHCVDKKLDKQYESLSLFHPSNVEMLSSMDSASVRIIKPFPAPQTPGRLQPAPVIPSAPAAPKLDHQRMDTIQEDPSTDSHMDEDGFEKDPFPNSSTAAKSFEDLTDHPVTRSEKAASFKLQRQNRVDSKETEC
# UniProt Q63531, sequence (whole entry, looked up): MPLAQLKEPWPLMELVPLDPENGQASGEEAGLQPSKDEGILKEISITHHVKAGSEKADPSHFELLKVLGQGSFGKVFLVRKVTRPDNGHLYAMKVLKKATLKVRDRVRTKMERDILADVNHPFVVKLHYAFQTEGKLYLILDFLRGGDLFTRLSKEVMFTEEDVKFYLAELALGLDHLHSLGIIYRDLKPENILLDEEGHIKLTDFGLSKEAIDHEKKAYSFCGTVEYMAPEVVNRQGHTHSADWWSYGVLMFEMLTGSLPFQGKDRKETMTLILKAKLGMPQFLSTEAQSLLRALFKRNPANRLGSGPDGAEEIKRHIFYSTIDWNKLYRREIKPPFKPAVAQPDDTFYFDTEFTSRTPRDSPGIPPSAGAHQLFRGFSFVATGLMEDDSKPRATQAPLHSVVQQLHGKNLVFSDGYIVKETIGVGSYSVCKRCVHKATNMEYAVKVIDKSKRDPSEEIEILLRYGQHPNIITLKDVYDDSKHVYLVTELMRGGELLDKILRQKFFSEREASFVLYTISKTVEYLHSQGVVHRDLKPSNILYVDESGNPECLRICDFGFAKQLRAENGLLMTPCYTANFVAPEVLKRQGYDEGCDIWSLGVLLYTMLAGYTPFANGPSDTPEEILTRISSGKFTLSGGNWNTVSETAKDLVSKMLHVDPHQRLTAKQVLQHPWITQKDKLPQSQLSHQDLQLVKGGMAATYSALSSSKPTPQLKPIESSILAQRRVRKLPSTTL
# UniProt P45983, sequence (whole entry, looked up): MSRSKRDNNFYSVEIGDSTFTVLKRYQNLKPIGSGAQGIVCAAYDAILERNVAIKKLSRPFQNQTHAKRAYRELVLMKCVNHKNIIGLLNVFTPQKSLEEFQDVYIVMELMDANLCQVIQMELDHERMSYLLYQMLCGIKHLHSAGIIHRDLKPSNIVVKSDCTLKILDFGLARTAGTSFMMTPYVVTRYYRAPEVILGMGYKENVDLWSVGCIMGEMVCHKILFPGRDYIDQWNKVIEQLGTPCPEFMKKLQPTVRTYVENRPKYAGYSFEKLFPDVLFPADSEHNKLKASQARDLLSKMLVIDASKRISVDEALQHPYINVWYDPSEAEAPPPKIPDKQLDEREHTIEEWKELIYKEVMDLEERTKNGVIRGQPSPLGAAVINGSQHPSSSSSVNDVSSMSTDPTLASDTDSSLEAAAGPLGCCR
SMILES,target,assay,system,setting,scale,remaining activity
CN(Cc1cc(C2CC2)on1)C(=O)c1cccc(-c2ccc3c(c2)CCO3)c1,"Acetyl-CoA synthetase (Cryptococcus neoformans, UniProt J9VFT1)","enzyme activity, inhibitor, coupled pyrophosphate",,488 nM,,106% and 94.1%
CC(C)[C@@H]1NC(=O)[C@H](Cc2ccccc2)NC(=O)CSC[C@@H](C(N)=O)NC(=O)[C@H](CCC(=O)O)NC(=O)[C@H](CO)NC(=O)[C@H](Cc2c[nH]c3cccc(Cl)c23)NC(=O)[C@H](C2CCCCC2)NC(=O)[C@H](C(C)C)NC(=O)[C@H](Cc2ccc(O)cc2)NC(=O)[C@H](CC(=O)O)NC(=O)[C@H](Cc2c[nH]c3ccccc23)NC(=O)[C@H](Cc2ccc(N)nc2)NC(=O)[C@H](Cc2c[nH]c3ccc(Cl)cc23)NC(=O)[C@H](CCC(=O)O)NC1=O,IL1RL2,"reporter gene (SEAP), inhibitor, HEK-Blue IL-36R reporter",HEK-Blue IL-36R cells,"0.046 µM, 6 h, together with: IL-36γ 10 ng/mL",,101%
C=C1C[C@@]2(C(=O)OC)C=C(C(=O)Nc3cccc(C(=O)Nc4ccc(Nc5nccc(-c6cccnc6)n5)c(C)c4)c3)C(=O)[C@@H]1C2,"MAPK8 (Homo sapiens, UniProt P45983)","kinase activity, inhibitor",,"0.0007527 µM, unit not given, together with: 10 mM glutathione",relative to: no inhibitor,0.987
CC(C)(C)OC(=O)NC(Cc1cccc(Cl)c1)C(=O)NCC=CS(=O)(=O)c1ccccc1 (stereo not shown),"Cathepsin B (CTSB, Homo sapiens, UniProt P07858)",inhibitor,,"5 µM, 60 min, together with: Z-Arg-Arg-pNA",relative to: uninhibited control,26%
COc1ccccc1-c1ccncc1C(=O)Nc1nnc(OCc2ccc(Cl)cc2)s1,"DNA polymerase theta, helicase domain (POLQ, Homo sapiens, UniProt O75417)","ATPase activity, ADP-Glo",,0.015 µM,relative to: 0 µM cpd,56%
N=C(NCC1CC1)c1ccc(-c2ccc(-c3ccc(C(=N)NCC4CC4)cc3)o2)cc1,PRMT5,"enzyme activity, inhibitor, radiometric",,20 µM,,58%
O=C=[N][Ru-4]123([n]4c5ccc(O)cc5c5c6c(c7cc(F)c[n+]1c7c54)C(=O)NC6=O)[S+]1CC[S+]2CC[S+]3CC1 (stereo not shown),"Rps6ka1 (Rattus norvegicus, UniProt Q63531)",enzyme activity,,"100 nM, rat enzyme, together with: 10 µM ATP",relative to: untreated,25%
N=C(N)c1ccc(-c2cncc(-c3ccc(C(=N)N)cc3)n2)cc1,PRMT5,"enzyme activity, inhibitor, radiometric",,20 µM,,52.4%
C[C@](C(=O)NC1CCOCC1)(c1cncnc1)N(C(=O)[C@H](F)Cl)c1ccc(OC(F)(F)Cl)cc1,"ADAM17 (Homo sapiens, UniProt P78536)","enzyme activity, inhibitor",,10 µM,,102%
N=C(N)c1ccc(-c2ccc(-c3ccc(C(=N)N)cn3)o2)cc1,PRMT5,"enzyme activity, inhibitor, radiometric",,20 µM,,102%
N#Cc1cnc2sc(C(=O)O)cc2c1N1CCc2[nH]nc(C(=O)N[C@@H](CC(=O)NCCOCCN3CCOCC3)c3cccc(Br)c3)c2C1,IL1RL2,"reporter gene (SEAP), inhibitor, HEK-Blue IL-36R reporter",HEK-Blue IL-36R cells,"0.41 µM, 6 h, together with: IL36A 0.01 ng/mL",,82.1%
N=C(NC1CCCCC1)c1ccc(-c2ccc(-c3ccc(C(=N)NC4CCCCC4)cc3)o2)cc1,PRMT5,"enzyme activity, inhibitor, radiometric",,20 µM,,41.3%
CN(C)S(=O)(=O)c1ccc(S(=O)(=O)N2CCC(n3c(=O)[nH]c4ccccc43)CC2)cc1,"ATP-dependent helicase NAM7, helicase domain (NAM7, Saccharomyces cerevisiae, UniProt P30771)","ATPase activity, BIOMOL Green",,concentration not given,,89% and 95% and 100% and 99% and 98% and 90%

# For quick reference, copied from above:
SMILES,target,assay,system,setting,scale,remaining activity
CC(C)(C)OC(=O)NC(Cc1cccc(Cl)c1)C(=O)NCC=CS(=O)(=O)c1ccccc1 (stereo not shown),"Cathepsin B (CTSB, Homo sapiens, UniProt P07858)",inhibitor,,"5 µM, 60 min, together with: Z-Arg-Arg-pNA",relative to: uninhibited control,26%
